{"data": "Measurements of several laboratories", "note": "Each numbered part is a random draw from the data of one study; scales do not carry over between parts."}
{"data": "Set 1", "target": "Interferon regulatory factor 7, full length, phosphomimetic (IRF7, Homo sapiens, UniProt Q92985, residues 1-503, S471D/S472D/S475D/S476D/S477D/S483D/S484D/S487D)", "method": "protein-binding microarray", "molecule type": "double-stranded DNA, one strand shown", "medium": "in vitro", "concentration": "2200 nM top", "setting": "60-bp whole probe", "added": "salmon DNA 0.4 mg/ml", "reference": "random background probes", "direction": "higher = stronger binding", "constant ends, left off below": "GCCTAGCAC … GTCTTGATTCGCTTGACGCTGCTG", "Residues (chain)": "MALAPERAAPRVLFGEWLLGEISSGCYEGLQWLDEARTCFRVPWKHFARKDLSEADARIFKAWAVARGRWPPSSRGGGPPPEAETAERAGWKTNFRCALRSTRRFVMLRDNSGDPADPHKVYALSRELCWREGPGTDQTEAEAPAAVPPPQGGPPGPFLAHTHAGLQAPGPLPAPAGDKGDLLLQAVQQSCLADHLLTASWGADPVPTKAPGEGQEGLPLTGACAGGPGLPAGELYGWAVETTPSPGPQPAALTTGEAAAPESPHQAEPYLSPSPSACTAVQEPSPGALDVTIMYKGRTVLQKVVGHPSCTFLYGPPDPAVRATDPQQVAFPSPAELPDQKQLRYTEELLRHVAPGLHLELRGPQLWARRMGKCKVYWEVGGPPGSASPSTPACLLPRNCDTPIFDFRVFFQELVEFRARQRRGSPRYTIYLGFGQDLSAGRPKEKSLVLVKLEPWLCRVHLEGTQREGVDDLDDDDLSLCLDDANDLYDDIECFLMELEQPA"}
{"Strand": "GCCGGACTGGGTTTCGGGACGTGCTAG", "fitted relative affinity": "0.587 z-score"}
{"Strand": "CCATTTCTGTTTTTGCTTTCGTGCTAG", "fitted relative affinity": "6.08 z-score"}
{"Strand": "TTAGGTATCGGGTTTCGGTCAGTGCTA", "fitted relative affinity": "2.15 z-score"}
{"Strand": "TCAATTTTCTCTGTTCTACTGTGCTAG", "fitted relative affinity": "1.73 z-score"}
{"Strand": "TTTGGACTGGGACTGGGTTAGTGCTAG", "fitted relative affinity": "-0.335 z-score"}
{"Strand": "GACGACTTCAGTCTCGAGACGTGCTAG", "fitted relative affinity": "0.0337 z-score"}
{"Strand": "TTAGGTGTCGGTTCCGGTTAGTGCTAG", "fitted relative affinity": "1.1 z-score"}
{"Strand": "GACGATTTCGGGACTCGAGACGTGCTA", "fitted relative affinity": "1.67 z-score"}
{"Strand": "TCATATTTACTCTCTACAACTGTGCTA", "fitted relative affinity": "1.41 z-score"}
{"Strand": "CACGGTTTCGGTATCGGGACGTGCTAG", "fitted relative affinity": "8.19 z-score"}
{"Strand": "TCATAATTCTCTTTTCAACTGTGCTAG", "fitted relative affinity": "1.12 z-score"}
{"Strand": "CTTCTTTTGCTAATTTTTTTGTGCTAG", "fitted relative affinity": "1.85 z-score"}
{"Strand": "TTAGGACTGGGTATTGGTTAGTGCTAG", "fitted relative affinity": "-0.33 z-score"}
{"data": "Set 2", "target": "RNA binding protein fox-1 homolog 2, RRM domain, GST-SBP tag (RBFOX2, Homo sapiens, UniProt O43251-10, residues 100-194)", "method": "RNA Bind-n-Seq", "molecule type": "RNA", "medium": "in vitro", "concentration": "365 nM", "setting": "natural RNA segment, single round, ends assumed", "reference": "no-protein control", "direction": "higher = stronger binding", "constant ends, left off below": "GGGAGUUCUACAGUCCGACGAUC … UGGAAUUCUCGGGUGCCAA", "Residues (chain)": "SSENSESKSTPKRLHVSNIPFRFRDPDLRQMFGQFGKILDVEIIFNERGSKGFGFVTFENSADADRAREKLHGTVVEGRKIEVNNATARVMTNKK"}
{"Strand": "CUUCUGCCCUGCUUUUGCUAGGUCACAGAGGAUCUGCUUGGUCUUGAUAAGCUAUGUUGUUGCACUUUAAACAUUUAAAUUAUACAAUCAUCAACCCCCAACCCUCUGGG", "RBNS enrichment (R)": 0.428}
{"Strand": "ACAAUCAGAACCAGGUACAAGCCAGUAAAGCGGCAGAUGACUGCCACUCAGCCCACAUACGGCAUUCUUCCCAUCCCACAGUCUUAGAGCCAGAUGAGGCUAACAAGACC", "RBNS enrichment (R)": 0.314}
{"Strand": "UGUGUGUGUGUGUGUGUGCGUGCGCGCGCGCGUGCGCACGCACGUGCAUGCACAUGCUAUGUAUUGGGUCCCUCCAAGGAUGAACCCUCUCUUUGGCUUAGAAGGCACUC", "RBNS enrichment (R)": 0.22}
{"Strand": "ACUAAAGAUUGAGUGAGGUCUCCCUGACUGAGGACUUCACCCCUUGAUUAAAGCAACUUGUGCUUCACUGCUGUCUGUGUGGCUCUGAGAGGGACUGGCAGAGGUGGACU", "RBNS enrichment (R)": 3.19}
{"Strand": "GCGCUCUAUUGCCCAUGGGAUAUGUGGUGUGUAUCCUUCAGAAAAAUUAAAAGGAAAAAUAAAGAAACUGUAGCCUGUUGUUUCUCCUGGGCUUGGGGUAGGGCUGCGGA", "RBNS enrichment (R)": 1.78}
{"Strand": "AAAAAUUCAUAUCCAGUGAAGAUCAACUUCAAGCUUUAGAGAACAUCUAAUAUCUCAUGCAUGCAGUUUUGUUGUAUCAAUUAAAAGGGUUUUGUAUAUUUAUGGUGGGA", "RBNS enrichment (R)": 24}
{"Strand": "AGUGUUGAUACCUGCCAUGUGUGGAGACAGUGUAAAUUCUACAUGAGUGUGAAACAAGGCAAGUCUCAGACCAGCAAUAAAUUAUUCAGUUUGGCUAACCUUAUUUUGUG", "RBNS enrichment (R)": 0.493}
{"Strand": "AGCCACAGACUGAGGCUUCCGGGUGAGGAACACCCUGGGGCUACUAUGUUUGUAGGUCUCAUGUGCUCAGGGCUAUGAAGUAGGCUGUGCAGGUGACAGCACCCUGCUAG", "RBNS enrichment (R)": 0.977}
{"data": "Set 3", "target": "Centromere-binding protein 1, full length, N-terminal tag (CBF1, Saccharomyces cerevisiae, UniProt P17106, residues 1-351)", "method": "protein-binding microarray", "molecule type": "double-stranded DNA, one strand shown", "medium": "in vitro", "concentration": "0.8 µM", "setting": "whole 60-bp probe, no competitor", "direction": "higher = stronger binding", "constant ends, left off below": "… GTCTTGATTCGCTTGACGCTGCTG", "UniProt P17106, sequence (whole entry, looked up)": "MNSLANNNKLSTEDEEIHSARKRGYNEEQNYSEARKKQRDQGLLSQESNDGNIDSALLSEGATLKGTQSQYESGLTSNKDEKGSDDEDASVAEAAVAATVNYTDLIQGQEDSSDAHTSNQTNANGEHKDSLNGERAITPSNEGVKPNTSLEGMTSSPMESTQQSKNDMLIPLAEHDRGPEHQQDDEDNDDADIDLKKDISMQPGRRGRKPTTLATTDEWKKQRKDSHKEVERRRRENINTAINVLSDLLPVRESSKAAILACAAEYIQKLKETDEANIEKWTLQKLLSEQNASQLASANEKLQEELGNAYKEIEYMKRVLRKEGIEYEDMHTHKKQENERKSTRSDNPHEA"}
{"Strand": "CTAGAGAAAACCTATCACGTCTGACGAACATGATTC", "fluorescence intensity": "635 a.u."}
{"Strand": "CTAAGGTTAAGAAATAGCATCAGATGTAATGGATTC", "fluorescence intensity": "491 a.u."}
{"Strand": "GAAAGGCCGAACCCCCACGAAAAATATCTGAATTAG", "fluorescence intensity": "494 a.u."}
{"Strand": "CTATCTTCAACAGGAAACGTGACGGTACTCATATTC", "fluorescence intensity": "1530 a.u."}
{"Strand": "CTACGCGTTATTTTTCGCGTGACATAATAGAAATTC", "fluorescence intensity": "1450 a.u."}
{"Strand": "CCTAACTACTATACACATGTGCGATAGCTTCGTACA", "fluorescence intensity": "932 a.u."}
{"Strand": "CTACTGATGGTCCATCACGGTCGGGGAACAAACTTC", "fluorescence intensity": "542 a.u."}
{"Strand": "TGTACGAAGCTATATAATCACGTTATAGTAGTTAGG", "fluorescence intensity": "1400 a.u."}
{"Strand": "GAAGGAAAAAGGTTTGTCACGAGCACCTAACTATAG", "fluorescence intensity": "1250 a.u."}
{"Strand": "TGTACGAAGCTATAAGGCACGGCTATAGTAGTTAGG", "fluorescence intensity": "479 a.u."}
{"Strand": "TGTACGAAGCTATGATGCGTGCTTATAGTAGTTAGG", "fluorescence intensity": "531 a.u."}
{"data": "Further values, each from its own experiment"}
{"Substance": "PhoQ, residues 284 288 289 292 302 303 NSMLDC", "target": "PhoP, residues 12 14 15 18 19 IQFRS (Escherichia coli, UniProt P23836)", "test": "Sort-seq, item: YFP reporter", "system": "E. coli", "conditions": "PhoQ-PhoP variant library, added: 10 µM Mg2+", "how to read": "reference: high Mg2+ state, higher = stronger signaling", "endpoint": "fold induction", "value": 23.1}
{"note": "Some of these lines once more (set 1):"}
{"Strand": "TTAGGTGTCGGTTCCGGTTAGTGCTAG", "fitted relative affinity": "1.1 z-score"}
{"Strand": "CACGGTTTCGGTATCGGGACGTGCTAG", "fitted relative affinity": "8.19 z-score"}
{"Strand": "TCATAATTCTCTTTTCAACTGTGCTAG", "fitted relative affinity": "1.12 z-score"}
{"Strand": "GACGACTTCAGTCTCGAGACGTGCTAG", "fitted relative affinity": "0.0337 z-score"}
